Experimental data gathered from unrelated publications.
Each numbered part is a random draw from the data of one study; scales do not carry over between parts. Several values in a cell are separate wells, animals, samples, runs or records.

Block 1 — cell line: HEK-293T/ACE2; tested at: concentration not given; time: 16 (unit not given); baseline: vehicle; endpoint: viability
Cc1cnc(C(=O)N[C@H]2CCCCC/C=C\[C@@H]3C[C@@]3(C(=O)NS(=O)(=O)C3CC3)NC(=O)[C@@H]3C[C@@H](Oc4nc5ccccc5c5ccccc45)CN3C2=O)cn1: 97.4%
Cc1ccc(Cl)c(Nc2ccccc2C(=O)O)c1Cl: 99.9%
CCN(CC)CCNC(=O)c1c(C)[nH]c(/C=C2\C(=O)Nc3ccc(F)cc32)c1C: 102%

Block 2 — method: competition protein-binding microarray; form: double-stranded DNA, one strand shown; sample: in vitro; tested at: 2 µM; added: Cbf1 competitor, 0.05 µM; reading: higher = stronger binding; endpoint: fluorescence intensity; all sequences stand within: … GTCTTGATTCGCTTGACGCTGCTG
Target: Phosphate system positive regulatory protein PHO4, full length, GST-tagged (PHO4, Saccharomyces cerevisiae, UniProt P07270, residues 1-312)
Setting: whole 60-bp probe, lowest competitor level
Construct (chain): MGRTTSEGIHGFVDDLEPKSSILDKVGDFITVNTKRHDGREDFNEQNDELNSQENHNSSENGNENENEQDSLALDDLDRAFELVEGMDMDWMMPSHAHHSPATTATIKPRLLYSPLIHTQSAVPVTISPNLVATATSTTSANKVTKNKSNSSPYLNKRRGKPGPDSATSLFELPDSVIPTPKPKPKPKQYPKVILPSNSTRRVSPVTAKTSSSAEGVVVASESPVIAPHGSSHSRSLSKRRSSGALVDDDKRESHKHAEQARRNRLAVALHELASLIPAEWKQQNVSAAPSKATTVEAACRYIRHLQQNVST
TGCGCAACAACTTGGGGAGTGGGTGTATGTCTAGAA: 4480 a.u.
CTTCTGTAAATTTGACAAGTGGGTGGACGCGCCCCG: 3800 a.u.
TCGATATATAGAAAGCACGATTGCCCAGGAGTTATG: 6590 a.u.
GTATTCAAGCAAGTACACGTGCGGAAGTTGTACCAG: 18700 a.u.
CATACCCAACCTTGTAGCGTGGGTGAAGATATTTGT: 6830 a.u.
CATACCCAACCTTGAACAGTGGGTGAAGATATTTGT: 3650 a.u.
ACCCGCCCCTCGGGGCACGCGGTCTCCCGGCTTCTC: 10300 a.u.
AAAGCGGTAATTTTTCACGTGGTATCAAATATCTAT: 14400 a.u.

Block 3 — method: protein-binding microarray; form: double-stranded DNA, one strand shown; sample: in vitro; tested at: 2540 nM top; setting: 60-bp whole probe; added: salmon DNA 0.4 mg/ml; baseline: random background probes; reading: higher = stronger binding; endpoint: fitted relative affinity; all sequences stand within: GCCTAGCAC … GTCTTGATTCGCTTGACGCTGCTG
Target: Interferon regulatory factor 3, full length, phosphomimetic (IRF3, Homo sapiens, UniProt Q14653, residues 1-427, S386D/S396D/S398D/S402D/T404D/S405D)
Sequence of UniProt Q14653 (whole entry, unmodified, looked up): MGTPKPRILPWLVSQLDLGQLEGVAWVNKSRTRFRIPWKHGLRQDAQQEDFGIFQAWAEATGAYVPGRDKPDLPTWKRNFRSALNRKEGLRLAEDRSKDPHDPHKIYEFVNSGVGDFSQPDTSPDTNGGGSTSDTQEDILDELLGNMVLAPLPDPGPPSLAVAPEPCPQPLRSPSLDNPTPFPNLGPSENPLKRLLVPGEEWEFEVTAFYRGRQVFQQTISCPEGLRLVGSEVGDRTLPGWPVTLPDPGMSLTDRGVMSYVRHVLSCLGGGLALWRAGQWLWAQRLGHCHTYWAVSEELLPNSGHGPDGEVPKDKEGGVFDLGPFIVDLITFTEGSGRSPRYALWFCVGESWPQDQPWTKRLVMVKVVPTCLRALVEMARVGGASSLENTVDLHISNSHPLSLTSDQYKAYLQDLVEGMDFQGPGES
TAAGATTTCAGTTTCGATTAGTGCTAG: 6.05 z-score
TTATGTATCCTTATCCTTTAGTGCTAG: 5.4 z-score
TAGGTTTTCTGGTTCCCATTGTGCTAG: 1.26 z-score
TTAGGTATCATACTGCTTTAGTGCTAG: 1.7 z-score
CTGGCTTTGACTCTTTCTGTGTGCTAG: -0.583 z-score
CCAGACTGCAGAGCAAGATCGTGCTAG: -0.288 z-score
TTAGGTTCCGTTTTCCTTTAGTGCTAG: 7.44 z-score
TTAGATATCAGGTTTCGATTAGTGCTA: 2.91 z-score

Block 4 — observed: enzyme activity; mode: inhibitor; tested at: 20 µM; setting: primary screen; endpoint: inhibition
Target: Replicase polyprotein 1ab, main protease (rep, Severe acute respiratory syndrome coronavirus 2, UniProt P0DTD1)
O=C1c2c(O)cc(O)cc2O[C@H](c2cc(O)c(O)c(O)c2)[C@H]1O: 99.7%
C[C@H](NC(=O)/C(C#N)=C/c1cccc(Br)n1)c1ccccc1: 97.7%
CC(Cc1ccc(O)c(O)c1)(NN)C(=O)O (stereo not drawn): 90.7%

Block 5 — mode: inhibitor; tested at: 20 µM; endpoint: inhibition
Target: Replicase polyprotein 1ab, nsp13 helicase (rep, Severe acute respiratory syndrome coronavirus 2, UniProt P0DTD1)
CCN(CC)CC(=O)Nc1c(C)cccc1C: -3.3%
COCc1nnc(N2CC(Oc3ccc(F)cc3Cl)C2)n1-c1ccc(OC)nc1: 11.3%
OC(Cc1ccncc1)C(Cl)(Cl)Cl (stereo not drawn): 5.97%
CCCC(CCC)C(=O)Nc1ccn([C@@H]2O[C@H](CO)[C@@H](O)C2(F)F)c(=O)n1: 9.41%
O=C(O)c1cc2ccccc2s1: 3.72%
Cc1nc(Nc2ncc(C(=O)Nc3c(C)cccc3Cl)s2)cc(N2CCN(CCO)CC2)n1: 3.7%
COc1ccc2[nH]c(C(=O)c3ccccc3)cc2c1: 7.98%
C=C1CC[C@@H]2[C@](C)(CO)[C@H](O)CC[C@@]2(C)[C@@H]1C/C=C1/C(=O)OC[C@H]1O: 3.56%
OB1OCc2cc(Cl)ccc21: 9.42%
NCCNC(=O)c1ccc(Cl)cn1: 2.1%
CC1(C)CCC(C)(C)c2cc(C(=O)Nc3ccc(C(=O)O)cc3)ccc21: 5.98%
CO[C@@H](C(=O)N1Cc2[nH]nc(NC(=O)c3ccc(N4CCN(C)CC4)cc3)c2C1)c1ccccc1: 4.88%
N[C@H](C(=O)O)c1ccc(O)cc1: -3.46%
CCC(=O)O[C@H](CC(=O)O)C[N+](C)(C)C: 5.02%
Cc1cc(OCc2nc(-c3ccccc3Cl)cs2)ccc1OCC(=O)O: 1.99%
COCCOCCOc1ccc(C2=N[C@@](C)(C(=O)O)CS2)c(O)c1: -2.98%
CN(C)CC/C=C1/c2ccccc2Sc2ccc(Cl)cc21: 6%
CO[C@@H]1[C@H](OC(=O)NC(=O)CCl)CC[C@]2(CO2)[C@H]1[C@@]1(C)O[C@@H]1CC=C(C)C: -0.26% and 3.27%
CN(C)N(C)C(=O)[C@@]1(Cc2ccccc2)CCCN(C(=O)[C@@H](Cc2c[nH]c3ccccc23)NC(=O)C(C)(C)N)C1: 4.14%
C=C1C(=O)O[C@@H]2/C=C(\C)CC/C=C(\C)CC[C@@H]12: 9.54%
CC(C)[C@@H](C)/C=C/[C@@H](C)[C@H]1CC[C@H]2/C(=C/C=C3\C[C@@H](O)CC[C@@H]3C)CCC[C@]12C: -2.77%
CCc1c(O)cc(O)c(C(=O)c2ccc(OCCN3CCOCC3)c(OC)c2)c1CC(=O)N(CCOC)CCOC: 5.11%
COc1ccc(-c2noc(CC(=O)O)c2-c2ccc(OC)cc2)cc1: 8.32%
OC(CN1CCNCC1)Cn1c2ccc(Br)cc2c2cc(Br)ccc21 (stereo not drawn): 9.67%

Block 6 — method: RNA Bind-n-Seq; form: RNA; sample: in vitro; tested at: 20 nM; setting: 6-mer, flanks averaged, single round; added: 150 mM KCl; baseline: input library; reading: higher = stronger binding; endpoint: 6-mer enrichment (R)
Target: TAR DNA-binding protein 43, full length, His tag (TARDBP, Homo sapiens, UniProt Q13148, residues 1-414)
CUAGCC: 0.641
GACUGC: 0.894
AGCUCA: 0.624
GUUGAG: 1.45
CAAGAU: 0.619
CGACAA: 0.661
UCCUUU: 0.607
UGCAGG: 1.66

Excerpt of the above (block 3):
TTAGGTTCCGTTTTCCTTTAGTGCTAG: 7.44 z-score
TAGGTTTTCTGGTTCCCATTGTGCTAG: 1.26 z-score
TTAGATATCAGGTTTCGATTAGTGCTA: 2.91 z-score
TTATGTATCCTTATCCTTTAGTGCTAG: 5.4 z-score
